Assay results collected from several papers.
Parts stem from different laboratories: compare values within a part only.

Set 1
Target: UBE2U UBC core domain (UniProt Q5VVX9)
Method: yeast two-hybrid
Sample: yeast
Notes: mostly zero background
Relative to: not given
Direction: higher = stronger interaction
Measurement: lacZ reporter activity
B1: RNF208 RING domain (UniProt Q9H0X6); chain SSAAAGEPLECPTCGHSYNVTQRRPRVLSCLHSVCEQCLQILYESCPKYKFISCPTCRRETVLFTDYG
B2: TRIM24 RING domain (UniProt O15164); chain EAARLNLLDTCAVCHQNIQSRAPKLLPCLHSFCQRCLPAPQRYLMLPAPMLGSAETPPPVPAPGSPVSGSSPFATQVGVIRCPVCSQECAERHII
B3: TRIM5 RING domain (UniProt Q9C035); chain LREVKLSPEGQKVDHCARHGEKLLLFCQEDGKVICWLCERSQEHRGHHTFLTEEVAREYQVKL
B4: MKRN1 RING domain (UniProt Q9UHC7); chain FAVQRSKDMVCGICMEVVYEKANPSERRFGILSNCNHTYCLKCIRKWRSAKQFESKIIKSCPECRITSNFVIPSE
B5: SH3RF2 RING domain (UniProt Q8TEC5); chain DDLTLLDLLECPVCFEKLDVTAKVLPCQHTFCKPCLQRVFKAHKELRCPECRTPVFSNIEAL
B6: TRIM43 RING domain (UniProt Q96BQ3); chain FSHAFQKELTCVICLNYLVDPVTICCGHSFCRPCLCLSWEEAQSPANCPACREPSPKMDFKT
B7: TRIM40 RING domain (UniProt Q6P9F5); chain LQKDNQEEGVCPICQESLKEAVSTNCGHLFCRVCLTQHVEKASASGVFCCPLCRKPCSEEVLG
Residues (chain): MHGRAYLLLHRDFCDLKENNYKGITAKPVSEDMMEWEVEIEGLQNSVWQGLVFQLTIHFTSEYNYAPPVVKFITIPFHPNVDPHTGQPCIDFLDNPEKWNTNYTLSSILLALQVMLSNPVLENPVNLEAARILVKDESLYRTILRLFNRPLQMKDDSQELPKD
FQGDVDEDLICPICSGVLEEPVQAPHCEHAFCNACITQWFSQQQTCPVDRSVVTVAHLRP (RNF41 RING domain (UniProt Q9H4P4)): 6190
B1 (RNF208 RING domain): 0
DHGAVGQEMCCPICCSEYVKGEVATELPCHHYFHKPCVSIWLQKSGTCPVCRCMFPPPL (PJA1 RING domain (UniProt Q8NG27)): 13300
B2 (TRIM24 RING domain): 16900
B3 (TRIM5 RING domain): 0
B4 (MKRN1 RING domain): 0
B5 (SH3RF2 RING domain): 5450
B6 (TRIM43 RING domain): 0
B7 (TRIM40 RING domain): 0
ASLPTSEEDLCPICYAHPISAVFQPCGHKSCKACINQHLMNNKDCFFCKTTIVSVEDWE (RNF123 RING domain (UniProt Q5XPI4)): 4890

Set 2
Target: Interferon regulatory factor 5, full length, phosphomimetic (IRF5, Homo sapiens, UniProt Q13568-2, residues 1-514, K96S/S451D/S453D/S456D/S462D)
Method: protein-binding microarray
Molecule type: double-stranded DNA, one strand shown
Sample: in vitro
Concentration: 250 nM
Notes: 60-bp whole probe
Together with: salmon DNA 0.4 mg/ml
Relative to: random background probes
Direction: higher = stronger binding
Measurement: log fluorescence
Constant ends, left off below: GCCTAGCAC … GTCTTGATTCGCTTGACGCTGCTG
TGAGGTTTCGGGTATCGGTTAGTGCTA: 8.35 z-score
TCATTTTTCTAACTAAAACTGTGCTAG: 1.13 z-score
GACGACATCGGGACTGGAGACGTGCTA: -0.239 z-score
TCACTTCTCCATTTTTCACTGTGCTAG: 1.31 z-score
CCACTCTTCCTTTACTTTCTGTGCTAG: 2.74 z-score
GACGAAGTGGGGTATCGAGACGTGCTA: 0.175 z-score
TTAGATATCAGTTTGGATTAGTGCTAG: 1.24 z-score
GACGGTCGCCTTATCCTGACGTGCTAG: -0.0736 z-score
CTCCCTTTCTCTCTGTGACAGTGCTAG: 1.64 z-score
CGCTTTTTTTTTTTTTTTTTGTGCTAG: 0.772 z-score
TTAGGTTTCGGTTTCGGTTCGTGCTAG: 11.8 z-score
TCACTCCTCTTTTTTTGACTGTGCTAG: 0.701 z-score
GACGGTTTCCTGTTCCTGACGTGCTAG: 0.569 z-score
GACGGCCTCCTACTGCTGACGTGCTAG: -0.636 z-score
TTAGAACTCAGTCTCGATTAGTGCTAG: 0.675 z-score
TCATCATTGCATATAGAACTGTGCTAG: 0.505 z-score
GACGGTCTCGGTATCGGGATGTGCTAG: 1.24 z-score
TGTGGACCTTGGGAGATTTCGTGCTAG: 0.0117 z-score
TTAGGACTGCTCTTCCTTTAGTGCTAG: -0.219 z-score

Set 3
Target: RNA binding protein fox-1 homolog 2, RRM domain, GST-SBP tag (RBFOX2, Homo sapiens, UniProt O43251-10, residues 100-194)
Method: RNA Bind-n-Seq
Molecule type: RNA
Sample: in vitro
Concentration: 365 nM
Notes: natural RNA segment, single round, ends assumed
Relative to: no-protein control
Direction: higher = stronger binding
Measurement: RBNS enrichment (R)
Constant ends, left off below: GGGAGUUCUACAGUCCGACGAUC … UGGAAUUCUCGGGUGCCAA
Construct (chain): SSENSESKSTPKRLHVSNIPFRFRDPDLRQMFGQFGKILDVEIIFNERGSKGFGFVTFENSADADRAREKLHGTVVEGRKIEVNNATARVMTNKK
GAAGAGUCCCCUUCCUUGCGUGUCAGCACGGAUGCUGUGACUGCCACCUGCGUCCUCGUCAAGUGCCCGAGCUCGCCGCCGUGUGUGCUGCGCUGAGUGAGUUAUGAGGU: 0.427
CAAAUCCUUUAUUAUUAUUAUAAUUAUUUUUUUGCGUGAAAGUGUUACAUAUUCUUUCACUUGUAUGUACAGAGAGGUUUUCUGAAUAUUUAUUUUAAGGGUUAAAUCAC: 4.05
CAAGAAGGUAACAUCAAAUAAAUAAGUCAAGCAGAGGACUUCCUGCCAAUCUCUUCUGUGAGGCAUCAUAGACACUGAGCAACCAGGACCACCCCCACGUUCAGAAAUCA: 0.403
UAUCAUGACCGAGCUAGGUUGUGUGGGCAGGAAGGUAGGGCUAAGGGGUUGUAGCCUUGCUGGGCAGCCUCUCAGAGCAAGGUUGUUCAGAUCUCCCUUGCUAUUACAGU: 0.62
UGGUGCCACAGCUCACUGUGACCUUGACCUUCUGGACUCAAGUGAUCCUCCUGCCUCAGCUUCCCAAGUAGCGGGGAUCACAGGCAUGAGCCGCCACACCCGGCCAUCAC: 0.132
GAUUAUCUUUAAUACCCUAGGCCUGGAUUGAGAGGCCUUCCUGUUCUAAGCCUACAAGUACUACUUGCUAUAGCUCAGACUUGUCUACAGUUCUUUGUAUGAUGCACUUU: 0.963
GGACUCCCCUACCUAUUAGUCUGGCCCCCAUGUGCUUUGCUCCCCAUGCUCAGUGGUCACUAUCCCCUCAACUCCCCACUUAGGGUUGGAAGUUCUGCCACUGUACUCUG: 0.756
ACCCCCUGCUCCAGGAGAUCUACAAGGACUUGUAUAGCAGGAAAGUCCCACCCGCUGACAACGUGUUCCUUCUAUUGAUUGCACUAUUAUUUUGAGGGAAAAAAAUCUGA: 1.16

Set 4
Target: Histone acetyltransferase KAT6A, winged helix 1, GST fusion (KAT6A, Homo sapiens, UniProt Q92794, residues 1-85)
Method: protein binding microarray
Molecule type: double-stranded DNA, one strand shown
Sample: in vitro
Concentration: not given
Notes: 8-mer, flanks averaged, mean of 2 arrays, mostly near background
Relative to: not given
Direction: higher = stronger binding
Measurement: E-score
Residues (chain): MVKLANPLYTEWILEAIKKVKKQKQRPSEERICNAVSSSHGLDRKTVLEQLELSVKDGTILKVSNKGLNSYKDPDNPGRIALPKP
CGGCCAGC: 0.292
AATGTTAC: 0.105
CTTCGGCA: 0.161
CTGTCAGA: -0.0184
CCCATGGA: -0.232
GGCTTAGA: -0.0335
CCATTGTA: -0.00428
TAATGCGA: 0.142
GCCGAGGC: 0.241
GTGCCTCA: -0.0804
CGACTGAC: 0.00106
ACATCATC: -0.0351
CGCTACTA: 0.208
GCTGATCA: -0.00263
GATACACA: -0.24
ATCAACAT: -0.18

For quick reference, copied from above (set 1):
DHGAVGQEMCCPICCSEYVKGEVATELPCHHYFHKPCVSIWLQKSGTCPVCRCMFPPPL (PJA1 RING domain (UniProt Q8NG27)): 13300
B2 (TRIM24 RING domain): 16900
B3 (TRIM5 RING domain): 0
B4 (MKRN1 RING domain): 0
B5 (SH3RF2 RING domain): 5450
B6 (TRIM43 RING domain): 0
B7 (TRIM40 RING domain): 0
ASLPTSEEDLCPICYAHPISAVFQPCGHKSCKACINQHLMNNKDCFFCKTTIVSVEDWE (RNF123 RING domain (UniProt Q5XPI4)): 4890
